Experimental data from different studies.
Protocols differ between the studies behind these lines. Numbers after ± are the reported error.

SMILES	target or system	test	system	conditions	scale	measurement	result
CCOC(=O)c1c(C(C)C)oc2nc(N3CCCC3)ccc12	CRL8155	cell growth or viability	–	48 h	–	EC50	> 50 µM
Cc1ccc(CC(=O)c2c(O)c(O)cc3c(O)c(-c4c(C)cc5c(C(=O)Cc6ccc(C)cc6)c(O)c(O)cc5c4O)c(C)cc23)cc1	PC3-ML	ATP-lite viability	–	72 h	–	EC50	2.5 µM
CCc1ccccc1COc1ccccc1C(=O)Nc1cccnc1	HCEC	sphingomyelin synthesis, inhibitor	–	6 h	–	EC50	3.99 µM
CCC/C(=C\C1=C(C(F)(F)F)C(=O)c2ccccc2C1=O)C(=O)N(CC)CC	Pa03C cells	3D spheroid co-culture	–	co-culture with CAF19	–	EC50	6.4 µM
CC(C)C[C@H](NC(=O)[C@H](CC(N)=O)NC(=O)[C@H](Cc1ccc(O)cc1)NC(=O)CN(C)C(=O)CCCCC(=O)O)C(=O)N[C@@H](Cc1ccc(O)cc1)C(=O)N[C@@H](CCCNC(=N)N)C(=O)N[C@H](C(=O)N[C@@H](CCCNC(=N)N)C(=O)N[C@@H](CO)C(N)=O)C(C)C	human dermal microvascular endothelial cells	–	–	added: VEGF	–	EC50	0.005 µM
O=C(Cc1ccc([N+](=O)[O-])cc1)N[C@@H](Cc1c[nH]c2ccccc12)C(=O)NCC1(c2ccccn2)CCCCC1	human neutrophils	calcium mobilisation, agonist	–	added: 2.5 mM probenecid	–	EC50	5.5 ± 1.5 µM
C(=C/c1ccccc1)/c1ccccc1	MOLT-3	apoptosis, flow cytometry, refers to: caspase-3 activity	–	24 h, 50% apoptosis induction	–	EC50	44 µM
Cc1ccc2nc(-c3ccccc3)c(CN3CCN(c4ccc(Cl)cc4)CC3)n2c1	CRL8155	cell growth or viability	–	48 h	–	EC50	49 µM
Cc1cc(-c2ccc(NC(=O)[C@H](CCCCNC(=O)CCOCCOCCC(=O)N[C@H](Cc3ccccc3)C(=O)N[C@H]3CSSC[C@@H](C(=O)N[C@H](C(=O)O)[C@@H](C)O)NC(=O)[C@H]([C@@H](C)O)NC(=O)[C@H](CCCCN)NC(=O)[C@@H](Cc4c[nH]c5ccccc45)NC(=O)[C@H](Cc4ccc(O)cc4)NC3=O)NC(=O)CN3CCN(CC(=O)O)CCN(CC(=O)O)CCN(CC(=O)O)CC3)c(C)c2)ccc1N=Nc1ccc2c(S(=O)(=O)O)cc(S(=O)(=O)O)c(N)c2c1O [lutetium-177 labelled]	–	–	metastatic NET patients, lymph node metastases	–	–	residence time	0.6 ± 0.18 h
C[n+]1cn([C@@H]2O[C@H](COP(=O)([O-])OP(=O)(O)CP(=O)(O)O)[C@@H](O)[C@H]2O)c2nc(N)nc(O)c21	–	cap-dependent translation, inhibitor	rabbit reticulocyte lysate	preincubated 60 min in lysate	–	IC50	9.87 ± 0.84 µM
COc1ccc(CC2COC(=O)C2Cc2ccc3c(c2)OCO3)cc1OC (mixture of isomers)	A2780cis	annexin V/7-AAD	–	3.25 µM, 72 h	relative to: untreated	apoptotic cells	increased
Cc1ccc2nc(-c3ccc(F)c(F)c3)c(CN3CCN(c4cccc(C(F)(F)F)c4)CC3)n2c1	CRL8155	cell growth or viability	–	48 h	–	EC50	> 50 µM
COc1cc(CNC(=O)C[C@H](C)CCC=C(C)C)ccc1OCc1cn(-c2ccccc2Cl)nn1	MOLT-4 leukaemia cells	SRB	–	10 µM, 48 h	–	growth percent	16.3%
Nc1nc2c(ncn2[C@@H]2O[C@@H]3COP(=O)(O)O[C@@H]4[C@@H](F)[C@H](n5cnc6c(N)ncnc65)O[C@@H]4CSP(=O)(O)O[C@@H]2[C@@H]3O)c(=O)[nH]1	THP1-Dual	IRF reporter, agonist	–	24 h	–	EC50	> 50 µM
Cc1nn(-c2ccc(S(=O)(=O)N[C@@H](CO)CC(C)C)cc2)c2nn3nnnc3nc12	PC-3	PI/Hoechst staining	–	0.5 µM, 24 h	–	necrotic cells	21 ± 4.24%
CC(=O)N[C@@H](CC(N)=O)C(=O)NCC(=O)N[C@@H](C)C(=O)N[C@@H](C)C(N)=O	Asn-Gly peptide isomerisation to succinimide	1H NMR time course	–	pH 7.8, 55 °C	–	rate constant k1	0.267 h⁻¹
Cc1cc(N)c2ccccc2[n+]1CCCCCCCCCCCCCC[n+]1c(C)cc(N)c2ccccc21	neuroblastoma tumour-initiating cells	sphere formation	–	6 days, retreated on day 3, mean over lines	–	EC50	0.00038 µM

SMILES	target or system	test	system	conditions	scale	measurement	result
CC1=C(C2=C(C)C(=O)c3c(cc(O)c(O)c3C(C)C)C2=O)C(=O)c2cc(O)c(O)c(C(C)C)c2C1=O (racemic)	H23 human lung cancer	cell viability, ATP luminescence	–	72 h	–	EC50	0.38 ± 0.04 µM
Cc1ccc2nc(-c3ccc(F)c(F)c3)c(CN3CCC(c4ccccc4)CC3)n2c1	CRL8155	cell growth or viability	–	48 h	–	EC50	> 50 µM
NS(=O)(=O)Nc1ncnc(OCCOc2ncc(Br)cn2)c1-c1ccc(Br)cc1	–	M6 formation	female Sprague-Dawley rat, liver microsomes	450 mg/kg daily for 4 weeks	–	Km	2.1 ± 0.6 µM
COc1cc(CNC(=O)C[C@H](C)CCC=C(C)C)ccc1OCc1cn(-c2ccc(F)cc2)nn1	MCF7 breast cancer cells	SRB	–	10 µM, 48 h	–	growth percent	77.1%
CC(C)[C@H](C(=O)Nc1ncc(F)s1)c1ccc(Cl)cc1	HEK293 expressing human GPR43	NF-κB reporter gene, luciferase	–	added: 10 ng/mL TNF-α	–	EC50	12 µM
NC(COc1cc(C(F)(F)F)cc(C(F)(F)F)c1)c1ccccc1 (stereo not drawn)	hiPSC cardiomyocytes	action potential prolongation, kinetic imaging cytometry, refers to: APD75	–	–	–	EC50	> 200 µM
Cc1ccc2nc(-c3ccc(F)c(F)c3)c(CN3CCN(c4ccc(F)cc4)CC3)n2c1	CRL8155	cell growth or viability	–	48 h	–	EC50	42.9 µM
CCC/C(=C\C1=C(F)C(=O)c2ccccc2C1=O)C(=O)N(CC)CC	Pa03C cells	3D spheroid co-culture	–	co-culture with CAF19	–	EC50	5.7 µM
C[n+]1cn([C@@H]2O[C@H](COP(=O)(O)OP(=O)([O-])C(F)(F)P(=O)(O)O)[C@@H](O)[C@H]2O)c2nc(N)nc(O)c21	–	cap-dependent translation, inhibitor	rabbit reticulocyte lysate	preincubated 60 min in lysate	–	IC50	2.43 ± 0.07 µM
O=Cc1c(O)ccc2ccccc12	HUVEC	RNA sequencing, refers to: HMOX1	–	75 µM, 24 h	relative to: DMSO	log2 fold change	2.99
COc1cccc(Cc2cc(CCC(=O)NCCNc3cccc4c(S(=O)(=O)O)cccc34)nn(CC(=O)Nc3ccc(Br)cc3)c2=O)c1	human neutrophils	calcium flux, agonist	–	–	–	EC50	0.0018 ± 0.00089 µM
Cc1ccc(-c2cn3cc(C)ccc3n2)cc1	CRL8155	cell growth or viability	–	48 h	–	EC50	41.3 µM
CCNC(=O)[C@@H]1CCCN1C(=O)[C@@H](NC(=O)[C@H](CCCNC(=N)N)NC(=O)[C@H](Cc1ccc(O)cc1)NC(=O)[C@H](CC(C)C)NC(=O)[C@H](CC(N)=O)NC(=O)[C@H](Cc1ccc(O)cc1)NC(=O)CN(C)C(=O)CCCCC(=O)O)C(C)C	human dermal microvascular endothelial cells	–	–	added: VEGF	–	EC50	0.003 µM
CCOC(=O)c1c(C)oc2nc(N3CCN(c4ccccc4)CC3)ccc12	CRL8155	cell growth or viability	–	48 h	–	EC50	> 50 µM
CCC/C(=C\C1=C(OC)C(=O)c2ccccc2C1=O)C(=O)NOC	Pa03C cells	3D spheroid co-culture	–	co-culture with CAF19	–	EC50	2.7 µM
Cc1cc(NC(=O)c2cccc(-n3cc(NC(=O)Nc4ccc(F)cc4)cn3)c2)ccn1	SH-SY5Y	c-Jun phosphorylation, inhibitor, in-cell Western	–	added: 6-OHDA	–	EC50	> 10 µM

A few entries again:
SMILES	target or system	test	system	conditions	scale	measurement	result
NC(COc1cc(C(F)(F)F)cc(C(F)(F)F)c1)c1ccccc1 (stereo not drawn)	hiPSC cardiomyocytes	action potential prolongation, kinetic imaging cytometry, refers to: APD75	–	–	–	EC50	> 200 µM
Cc1ccc2nc(-c3ccc(F)c(F)c3)c(CN3CCN(c4ccc(F)cc4)CC3)n2c1	CRL8155	cell growth or viability	–	48 h	–	EC50	42.9 µM
